Published values of several laboratories.
Values joined by “and” are separate records of one study, mostly repeats; a detail may differ. ± marks the error that the study gave.
rep main protease: Replicase polyprotein 1ab, main protease (rep, Severe acute respiratory syndrome coronavirus 2, UniProt P0DTD1)
rep papain-like protease: Replicase polyprotein 1ab, papain-like protease (rep, Severe acute respiratory syndrome coronavirus 2, UniProt P0DTD1)

Nc1cccc(-n2[se]c3ccccc3c2=O)c1 — inhibition (rep main protease; enzyme activity, inhibitor; 0.3 µM): 68.7%
COC(=O)C[C@@H](C(=O)OC)n1[se]c2ccccc2c1=O — inhibition (rep main protease; enzyme activity, inhibitor; 40 µM, mean of repeats): 105%
CCCCCCCCCCCCCCCC(=O)N[C@@H](CCC(=O)NCCOCCOCCC(=O)NCCOCCOCCC(=O)NCCCC[C@H](NC(=O)[C@H](CC(=O)O)NC(=O)[C@H](CC(C)C)NC(=O)[C@H](Cc1ccc(O)cc1)NC(=O)[C@H](CCCCN)NC(=O)[C@H](CO)NC(=O)[C@H](Cc1ccc(O)cc1)NC(=O)[C@H](CC(=O)O)NC(=O)[C@H](CO)NC(=O)[C@@H](NC(=O)[C@H](Cc1ccccc1)NC(=O)[C@@H](NC(=O)CNC(=O)[C@H](CCC(N)=O)NC(=O)[C@@H](CO)NC(=O)[C@@H](N)Cc1c[nH]cn1)[C@@H](C)O)[C@@H](C)O)C(=O)N[C@@H](CCCNC(=N)N)C(=O)N[C@@H](CCCNC(=N)N)C(=O)N[C@@H](C)C(=O)N[C@@H](CCC(N)=O)C(=O)N[C@@H](CC(=O)O)C(=O)N[C@@H](Cc1ccccc1)C(=O)N[C@H](C(=O)N[C@@H](CCC(N)=O)C(=O)N[C@@H](Cc1c[nH]c2ccccc12)C(=O)N[C@@H](CC(C)C)C(=O)N[C@@H](CC(C)C)C(=O)N[C@@H](CC(N)=O)C(=O)N[C@H](C(=O)NCC(=O)NCC(=O)N1CCC[C@H]1C(=O)N[C@@H](CO)C(=O)N[C@@H](CO)C(=O)NCC(=O)N[C@@H](C)C(=O)N1CCC[C@H]1C(=O)N1CCC[C@H]1C(=O)N1CCC[C@H]1C(=O)N[C@@H](CO)C(N)=O)[C@@H](C)O)C(C)C)C(=O)O — half-life (rhesus monkey, plasma; intravenous, 15.3 µg/kg, single dose): 29.9 min
CC(NC(=O)c1ccccc1[Se][Se]c1ccccc1C(=O)NC(C)C(=O)O)C(=O)O (stereo not shown) — inhibition (rep main protease; enzyme activity, inhibitor; 40 µM): 103%
COc1cc(-c2oc3cc(OC(C)=O)c(OC)c(OC(C)=O)c3c(=O)c2OC)ccc1OC(C)=O — inhibition (rep main protease; enzyme activity, inhibitor, mass spectrometry; concentration not given): inhibited
CC1(C)C2CCC(Cn3[se]c4ccccc4c3=O)C1C2 (stereo not shown) — inhibition (rep main protease; enzyme activity, inhibitor; 40 µM): 103%
Nc1ccc(-n2[se]c3ccccc3c2=O)cc1 — inhibition (rep main protease; enzyme activity, inhibitor; 0.3 µM): 71.6%
O=C(NC1CCC(F)(F)CC1)C(c1cncnc1)N(C(=O)C(F)Cl)c1ccc(OC(F)(F)F)cc1 (stereo not shown) — inhibition (rep main protease; enzyme activity; 25 µM): 99.6% and 96.9%
C=C1CC[C@@H]2[C@](C)(COC(C)=O)[C@H](OC(C)=O)CC[C@@]2(C)[C@@H]1C[C@H](SC(=S)N1CCc2ccccc2C1c1ccccc1)C1=CCOC1=O (stereo partly shown) — inhibition (rep main protease; enzyme activity, inhibitor, fluorescence; 10 µM): > 50%
COc1cc(OC)cc(C(=O)N(CCC(=O)N2CCNCC2)Cc2cccc(Cl)c2)c1 — inhibition (Replicase polyprotein 1ab, nsp3 macrodomain (rep, Severe acute respiratory syndrome coronavirus 2, UniProt P0DTD1); ADP-ribosylhydrolase activity, gel-based; concentration not given): inhibited
O=S(=O)(/N=c1/ssc(-c2ccccc2)c1Cl)c1ccccc1 — inhibition (rep main protease; enzyme activity, inhibitor; 100 µM): 94.7%
c1ccc([Se][Se]c2ccccc2)cc1 — inhibition (rep main protease; enzyme activity, inhibitor; 40 µM): 104%
Nc1nnc(SC2CC(=O)N(c3cccc4ccccc34)C2=O)s1 (stereo not shown) — inhibition (rep main protease; enzyme activity, inhibitor; 10 µM): 97.6%
O=C(/C=C/c1ccc(O)c(O)c1)O[C@@H]1Cc2c(O)cc(O)cc2O[C@@H]1c1ccc(O)c(O)c1 — inhibition (rep main protease; intracellular protease activity; HEK293T; 100 µM): 93.55 ± 0.06%
O=C(NC1CCC(F)(F)CC1)C(c1cncnc1)N(C(=O)C(F)Cl)c1ccc(-c2cncs2)cc1 (stereo not shown) — inhibition (rep main protease; enzyme activity; 25 µM): 100% and 102%
NS(=O)(=O)c1ccc(CCNC(=O)OC(=O)c2ccccc2NC(=O)c2ccco2)cc1 — inhibition (rep papain-like protease; enzyme activity, inhibitor; 100 µg/mL): 0%
COc1ccc(-c2cc(=O)c3c(O)cc(O)cc3o2)cc1Oc1ccc(-c2cc(=O)c3c(O)cc(O)cc3o2)cc1 — inhibition (rep papain-like protease; enzyme activity, inhibitor; 2.5 µM): 60.7%
C=C1CCC2C(C)(CO)C(O)CCC2(C)C1CC(SC(=S)N1CCN(Cc2cc(F)c(F)cc2F)CC1)C1=CCOC1=O (stereo not shown) — inhibition (rep main protease; enzyme activity, inhibitor, fluorescence; 100 µM): ~70%
O=C(CCc1ccccc1)NOC(=O)OCc1ccccc1 — inhibition (rep main protease; enzyme activity; 1.25 µM, 100 min preincubation): ~90%
O=C(CCl)N1CCN(S(=O)(=O)c2cccs2)CC1 — inhibition (rep main protease; enzyme activity, inhibitor, fluorescence; 50 µM, pH 7.2): 102%
COC(=O)c1cc2c(=O)n3ccccc3nc2n1Cc1ccccc1 — inhibition (rep main protease; enzyme activity, inhibitor; 10 µM): 18%
C[C@@H](Cc1ccc(O)c(O)c1)[C@@H](C)Cc1ccc(O)c(O)c1 — inhibition (rep papain-like protease; enzyme activity, inhibitor, FRET; 8 µM): 30.7%
COc1ccc2[nH]cc(CCN/C(=N\C(=O)CSc3nnc(N)s3)Nc3nc(C)cc(C)n3)c2c1 — inhibition (rep papain-like protease; enzyme activity, inhibitor; 100 µg/mL): 0%
CCOC(=O)Cn1[se]c2ccccc2c1=O — inhibition (rep main protease; enzyme activity, inhibitor; 40 µM): 105% and 103%
C[C@](C(=O)NC1CCC(F)(F)CC1)(c1cncnc1)N(C(=O)[C@H](F)Cl)c1ccc(OC(F)(F)F)cc1 — inhibition (rep main protease; enzyme activity, inhibitor; 0.926 µM): 98.1%
O=C(NC1CCN(c2ncnc3[nH]cnc23)CC1)c1cccc(NS(=O)(=O)c2ccc(C(F)(F)F)cc2)c1 — inhibition (Replicase polyprotein 1ab, nsp14 with nsp10 (rep, Severe acute respiratory syndrome coronavirus 2, UniProt P0DTD1); exonuclease activity; SARS-CoV-2; 3.125 µM): 11.6%
C[C@](C(=O)NC1CCOCC1)(c1cncnc1)N(C(=O)[C@H](F)Cl)c1ccc(OC(F)(F)Cl)cc1 — inhibition (rep main protease; enzyme activity; 0.00051 µM): -4.71% and 3.22% and 2.76%
COc1cc(Oc2c(O)cc(C)c(Br)c2OC)c(C(=O)O)c(C)c1O — inhibition (rep main protease; enzyme activity, inhibitor, FRET; 10 µM): 46.7%
O=C(Oc1cncc(Cl)c1)c1cccc2[nH]ccc12 — inhibition (rep main protease; enzyme activity, inhibitor, fluorescence; 10 µM, pH 7.2): 100%
O=c1c2ccccc2[se]n1-c1ccc(Cl)cc1 — inhibition (rep main protease; enzyme activity, inhibitor; 0.3 µM): 49.2%
COc1cccc2c1C(=O)C=CC2=O — inhibition (rep main protease; enzyme activity, inhibitor; 0.1 µM): 18.7%
CC[C@@H](C)[C@H](NC(=O)c1ccccc1[Se][Se]c1ccccc1C(=O)N[C@H](C(=O)O)[C@H](C)CC)C(=O)O — inhibition (rep main protease; enzyme activity, inhibitor; 40 µM): 73.5% and 70.9%
O=C(Oc1ccc(OC(=O)c2ccc(C(=O)Nc3ccccc3C(=O)O)c(C(=O)O)c2)cc1)c1ccc(C(=O)Nc2ccccc2C(=O)O)c(C(=O)O)c1 — inhibition (rep main protease; enzyme activity, inhibitor; 100 µg/mL): 10.2%
O=c1cc(-c2ccc(O)cc2)oc2c(C3OC(CO)C(O)C(O)C3O)c(O)c(C3OC(CO)C(O)C(O)C3O)c(O)c12 (stereo not shown) — inhibition (rep main protease; enzyme activity, inhibitor; 8 µM): 76.5%

Repeated from above:
COc1cc(-c2oc3cc(OC(C)=O)c(OC)c(OC(C)=O)c3c(=O)c2OC)ccc1OC(C)=O — inhibition (rep main protease; enzyme activity, inhibitor, mass spectrometry; concentration not given): inhibited
CC1(C)C2CCC(Cn3[se]c4ccccc4c3=O)C1C2 (stereo not shown) — inhibition (rep main protease; enzyme activity, inhibitor; 40 µM): 103%
Nc1ccc(-n2[se]c3ccccc3c2=O)cc1 — inhibition (rep main protease; enzyme activity, inhibitor; 0.3 µM): 71.6%
O=C(NC1CCC(F)(F)CC1)C(c1cncnc1)N(C(=O)C(F)Cl)c1ccc(OC(F)(F)F)cc1 (stereo not shown) — inhibition (rep main protease; enzyme activity; 25 µM): 99.6% and 96.9%
